Experimental data collected from several papers.
Parts stem from different laboratories: compare values within a part only.

Series 1
Target: Sal-like protein 4, full length isoform B (SALL4, Homo sapiens, UniProt Q9UJQ4-2, residues 1-616)
Method: universal PBM
Molecule type: double-stranded DNA, one strand shown
Matrix: in vitro
Tested at: not given
Setting: 8-mer, flanks averaged, mean of replicates
Direction: higher = stronger binding
Endpoint: E-score
Residues (chain): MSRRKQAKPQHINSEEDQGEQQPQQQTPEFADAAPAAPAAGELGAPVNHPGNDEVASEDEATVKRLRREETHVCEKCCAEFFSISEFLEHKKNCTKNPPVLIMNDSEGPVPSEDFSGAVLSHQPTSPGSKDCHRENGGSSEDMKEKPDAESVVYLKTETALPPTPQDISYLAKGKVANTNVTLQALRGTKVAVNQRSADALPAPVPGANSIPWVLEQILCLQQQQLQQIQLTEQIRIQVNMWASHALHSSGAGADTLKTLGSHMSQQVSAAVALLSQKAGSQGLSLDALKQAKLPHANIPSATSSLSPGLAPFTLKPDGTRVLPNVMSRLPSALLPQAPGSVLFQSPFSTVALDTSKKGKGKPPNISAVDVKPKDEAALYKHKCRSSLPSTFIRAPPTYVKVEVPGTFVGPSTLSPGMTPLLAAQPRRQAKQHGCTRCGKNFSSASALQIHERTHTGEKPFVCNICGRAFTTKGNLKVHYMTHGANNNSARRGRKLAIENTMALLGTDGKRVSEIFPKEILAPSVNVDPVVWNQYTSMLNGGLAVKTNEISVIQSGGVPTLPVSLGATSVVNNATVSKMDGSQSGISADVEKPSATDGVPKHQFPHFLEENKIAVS
Oligonucleotide = ACTGCTTG; result = -0.0282
Oligonucleotide = AATTTGAA; result = 0.271
Oligonucleotide = CCCAAAGA; result = -0.00794
Oligonucleotide = AGTTGCGA; result = 0.0793

Series 2
Target: Interferon regulatory factor 3, full length, phosphomimetic (IRF3, Homo sapiens, UniProt Q14653, residues 1-427, S386D/S396D/S398D/S402D/T404D/S405D)
Method: protein-binding microarray
Molecule type: double-stranded DNA, one strand shown
Matrix: in vitro
Tested at: 2540 nM top
Setting: 60-bp whole probe
Together with: salmon DNA 0.4 mg/ml
Relative to: random background probes
Direction: higher = stronger binding
Endpoint: fitted relative affinity
Construct (chain): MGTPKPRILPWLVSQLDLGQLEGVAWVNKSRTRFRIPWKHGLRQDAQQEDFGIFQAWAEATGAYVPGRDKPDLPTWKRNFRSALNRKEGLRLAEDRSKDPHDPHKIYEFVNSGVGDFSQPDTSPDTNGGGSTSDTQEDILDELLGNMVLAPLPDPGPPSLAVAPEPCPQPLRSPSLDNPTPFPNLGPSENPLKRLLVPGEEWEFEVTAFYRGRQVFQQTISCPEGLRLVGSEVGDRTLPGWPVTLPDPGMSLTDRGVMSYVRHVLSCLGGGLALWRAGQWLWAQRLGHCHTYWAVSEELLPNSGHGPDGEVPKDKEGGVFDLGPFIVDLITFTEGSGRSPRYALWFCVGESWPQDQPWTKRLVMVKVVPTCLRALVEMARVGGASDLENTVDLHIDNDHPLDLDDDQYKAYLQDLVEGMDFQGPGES
Oligonucleotide = GCCTAGCACTTAGGTTTACTACTGCTTTAGTGCTAGGTCTTGATTCGCTTGACGCTGCTG; result = 0.259 z-score
Oligonucleotide = GCCTAGCACCCTGTAATCCCAGCTACTCAGTGCTAGGTCTTGATTCGCTTGACGCTGCTG; result = 0.263 z-score
Oligonucleotide = GCCTAGCACGACGGTATCCTACTACTGACGTGCTAGGTCTTGATTCGCTTGACGCTGCTG; result = 3.4 z-score

Series 3
Target: Histone acetyltransferase KAT6A, both winged helices, GST fusion (KAT6A, Homo sapiens, UniProt Q92794, residues 1-181)
Method: protein binding microarray
Molecule type: double-stranded DNA, one strand shown
Matrix: in vitro
Tested at: not given
Setting: 8-mer, flanks averaged, mean of 2 arrays, mostly near background
Relative to: not given
Direction: higher = stronger binding
Endpoint: E-score
Target sequence (chain): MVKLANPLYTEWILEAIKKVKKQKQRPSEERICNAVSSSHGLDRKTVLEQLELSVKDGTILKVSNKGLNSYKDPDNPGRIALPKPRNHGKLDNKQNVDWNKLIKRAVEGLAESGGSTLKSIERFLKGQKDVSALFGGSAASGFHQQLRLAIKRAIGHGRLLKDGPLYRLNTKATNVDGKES
Oligonucleotide = CACAATTA; result = -0.0429
Oligonucleotide = AAGTTGAG; result = -0.184
Oligonucleotide = CAACCCGA; result = 0.0694

Other studies, line by line
Molecule = PhoQ, residues 284 288 289 292 302 303 ASTSDA; target = PhoP, residues 12 14 15 18 19 NQAHL (Escherichia coli, UniProt P23836); assay = Sort-seq, measured: YFP reporter; test system = E. coli; conditions = PhoQ-PhoP variant library, together with: 10 µM Mg2+; scale = relative to: high Mg2+ state, higher = stronger signaling; endpoint = fold induction; result = 6.74

For quick reference, copied from above (series 3):
Oligonucleotide = CACAATTA; result = -0.0429
Oligonucleotide = AAGTTGAG; result = -0.184
